Experimental data pooled from the literature.
Lines come from different studies, so protocols differ. ± marks the error that the study gave.

| SMILES | cell line | read-out | mode | technique | time | setting | IC50 |
| --- | --- | --- | --- | --- | --- | --- | --- |
| O=C(/C=C/c1ccccc1)c1cc2ccccc2oc1=O | Vero | cell viability |  | MTT | 48 h |  | 432 µM |
| C[C@H]1C(OCCCCCCCCCC[P+](c2ccccc2)(c2ccccc2)c2ccccc2)O[C@@H]2O[C@@]3(C)CCC4[C@H](C)CCC1[C@]42OO3 (stereo partly shown) | J82 | cell growth or viability |  | MTT | 72 h |  | 0.0868 µM |
| COC(=O)CC[C@@H](NC(=O)[C@@H](Cc1ccc(OP(=O)(O)O)cc1)NC(=O)[C@@H](Cc1ccccc1)NC(=O)[C@@H](Cc1ccccc1)NC(=O)Cc1ccc2ccccc2c1)C(=O)OC | OVSAHO | cell viability |  |  | day 3 (72 h) |  | < 20 µM |
| C[C@H]1C(OCCCCCCCCC[P+](c2ccccc2)(c2ccccc2)c2ccccc2)O[C@@H]2O[C@@]3(C)CCC4[C@H](C)CCC1[C@]42OO3 (stereo partly shown) | J82 | cell growth or viability |  | MTT | 72 h |  | 0.0919 µM |
| C[C@H]1[C@H](OC(=O)CCC(=O)OCCc2ccc(OC(=O)CCC(=O)O[C@@H]3O[C@@H]4O[C@@]5(C)CC[C@H]6[C@H](C)CC[C@@H]([C@H]3C)[C@@]46OO5)cc2)O[C@@H]2O[C@@]3(C)CC[C@H]4[C@H](C)CC[C@@H]1[C@@]24OO3 | C3PV | cell growth or viability |  | MTT | 24 h |  | 6.1 µM |
| CN(C)C(=O)[C@H](NC(=O)c1ccccc1-c1ccc(C(F)(F)F)cc1)c1cccc(C(F)(F)F)c1 | KHYG-1 with Ba/F3-MICA cells | NKG2D-mediated cell killing | inhibitor |  | 6 h |  | > 40 µM |
| [Cl][Ag].[Se]=c1n(C2CCCCC2)ccn1C1CCCCC1 | human ovarian cancer cells | cell viability |  | MTT | 72 h |  | 3.3 ± 0.9 µM |
| F[P-](F)(F)(F)(F)F.OCP(CO)CO.OCP(CO)CO.OCP(CO)CO.OCP(CO)CO.[Cu+] | LoVo | cell growth or viability |  | MTT | 72 h |  | 0.23 µM |
| O=S(=O)([O][Pt]([O]S(=O)(=O)C(F)(F)F)([PH](c1ccccc1)(c1ccccc1)c1ccc[cH-]1)[PH](c1ccccc1)(c1ccccc1)c1ccc[cH-]1)C(F)(F)F.[Fe+2] | T98G | cell growth |  | MTT | 24 h |  | 32.5 µM |
| CN(C)C(=O)[C@@H](NC(=O)c1cnccc1-c1ccc(C(F)(F)F)cc1)c1cccc(C(F)(F)F)c1 | KHYG-1 with Ba/F3-MICA cells | NKG2D-mediated cell killing | inhibitor |  | 6 h |  | 0.6 ± 0.2 µM |
| O=C(Cc1ccc2ccccc2c1)N[C@H](Cc1ccccc1)C(=O)N[C@H](Cc1ccccc1)C(=O)N[C@H](Cc1ccc(O)cc1)C(=O)N[C@H](Cc1ccc(OP(=O)(O)O)cc1)C(=O)O | T98G | cell growth or viability |  | MTT |  |  | 327 µg/mL |
| C[C@H]1C(OCCCCCCCCCCCC[P+](c2ccccc2)(c2ccccc2)c2ccccc2)O[C@@H]2O[C@@]3(C)CCC4[C@H](C)CCC1[C@]42OO3 (stereo partly shown) | J82 | cell growth or viability |  | MTT | 72 h |  | 0.0821 µM |
| NCCCC[C@@H](NC(=O)[C@H](Cc1c[nH]cn1)NC(=O)[C@H](CO)NC(=O)[C@H](Cc1c[nH]c2ccccc12)NC(=O)[C@H](Cc1c[nH]cn1)NC(=O)[C@@H]1CCC(=O)N1)C(=O)N[C@@H](Cc1c[nH]c2ccccc12)C(=O)N[C@@H](Cc1ccc(O)cc1)C(=O)N1CCC[C@H]1C(=O)NCC(N)=O | WPE-1-NB26-3 | cell growth | inhibitor | sulforhodamine B staining | four days |  | 0.0011 ± 0.0008 µM |
| C[C@H](NC(=O)[C@H](CCCNC(=N)N)NC(=O)[C@H](CCCNC(=N)N)NC(=O)[C@@H]1CCCN1C(=O)CNC(=O)[C@H](CCCNC(=N)N)NC(=O)[C@H](CCCNC(=N)N)NC(=O)CN)C(=O)N[C@@H](CC(N)=O)C(=O)N[C@@H](CCC(N)=O)C(=O)N[C@@H](CC(N)=O)C(=O)NCC(=O)N[C@H](C(=O)N[C@@H](CCCNC(=N)N)C(=O)N[C@@H](CCCNC(=N)N)C(=O)N[C@@H](CCCNC(=N)N)C(=O)N[C@@H](CCCNC(=N)N)C(=O)N[C@@H](CCCNC(=N)N)C(=O)N[C@@H](CCCNC(=N)N)C(=O)N[C@H](C(N)=O)[C@@H](C)O)[C@@H](C)O | BT-474 | cell viability |  | CellTiter-Blue | 24 h | serum-free medium | > 100 µM |
| CNC(=O)c1cc(Oc2ccc(NC(=O)c3ccc(-c4ccc(COC(=O)CCC(=O)OC5OC6OC7(C)CCC8C(C)CCC(C5C)C68OO7)cc4)cn3)cc2)ccn1 (stereo not shown) | L02 | cell growth or viability |  | MTT | 72 h |  | > 100 µM |
| C1CCN(C2CCNCC2)CC1.CCCC(CCC)C(=O)[O][Pt]([OH])([Cl])[Cl].CCCCN | BXPC-3 | cell growth or viability |  |  |  |  | 4.43 µM |
| COCC12CN(C)C3C4C(OC)C1C3(C(OC)CC2O)C1CC2(O)C(OC)C(O)C4(OC(C)=O)C1C2OC(=O)c1ccccc1 (stereo not shown) | NCI-H460 | cell growth or viability |  | MTT |  |  | 15.6 µM |
| Cc1cc(C)c(-n2ccn(-c3c(C)cc(C)cc3C)c2=[Se])c(C)c1.[Cl][Au] | human ovarian cancer cells | cell viability |  | MTT | 72 h |  | 1.8 ± 0.3 µM |
| CC(C)OC(=O)C(n1cccn1)n1cccn1.F[P-](F)(F)(F)(F)F.[Cu+].c1ccc(P(c2ccccc2)c2ccccc2)cc1 | BCPAP | cell growth or viability |  | MTT | 72 h |  | 11.4 µM |
| CCN1CC2(COC)CCC(O)C34C5CC6C(OC)CC(O)(C5C6OC(C)=O)C(C(OC)C23)C14 (stereo not shown) | HBE | cell growth or viability |  | MTT |  |  | 29.6 µM |
| Cc1cc(C)c(N2CCN(c3c(C)cc(C)cc3C)C2=[Se])c(C)c1.[Cl][Ag] | LoVo | cell growth or viability |  | MTT | 72 h |  | 3.2 µM |
| CCOC(=O)[C@H]1Cc2c(cc([N+](=O)[O-])cc2[N+](=O)[O-])[C@@H](O)[C@@]12C(=O)Nc1ccccc12 | T98G | cell growth or viability |  | MTT | 24 h |  | 62.4 µM |

| SMILES | cell line | read-out | mode | technique | time | setting | IC50 |
| --- | --- | --- | --- | --- | --- | --- | --- |
| O=C(C[P+]([Au-][Cl])(c1ccccc1)c1ccccc1)[O][Ti+2][O]C(=O)C[P+]([Au-][Cl])(c1ccccc1)c1ccccc1.c1cc[cH-]c1.c1cc[cH-]c1 | HEK-293T | cell growth or viability |  | XTT | 24 h |  | 24 µM |
| C(#C[P+](c1ccccc1)(c1ccccc1)c1ccccc1)c1ccccc1 | human melanoma cell lines | cell viability |  | MTT | 72 h |  | 0.5 to 1.5 µM |
| CCOP(=O)(OCC)OCCCCOC(=O)CC1=C(C)C(=Cc2ccc([S+](C)[O-])cc2)c2ccc(F)cc21 (stereo not shown) | A549 EGFR siRNA knockdown | cell viability |  |  | 24 h |  | 68 µM |
| CCN1CC2(COC)CCC(OC)C34C5CC6C(OC)CC(O)(C(CC23)C14)C5C6OC(=O)c1ccccc1 (stereo not shown) | HBE | cell growth or viability |  | MTT |  |  | 44.5 µM |
| CC(=O)C(NC(=O)c1ccccc1-c1ccc(C(F)(F)F)cc1)c1cccc(C(F)(F)F)c1 (stereo not shown) | KHYG-1 with Ba/F3-MICA cells | NKG2D-mediated cell killing | inhibitor |  | 6 h |  | > 40 µM |
| O=C1N[C@H]2[C@H](CS[C@H]2CCCCC(=O)OCc2ccnc(-c3cc(COC(=O)CCCC[C@@H]4SC[C@@H]5NC(=O)N[C@@H]54)ccn3)c2)N1.O=S(=O)([O-])C(F)(F)F.[Ru+2].c1cc[cH-]c1.c1ccc(P(c2ccccc2)c2ccccc2)cc1 | NIH3T3 | cell growth or viability |  | MTT | 48 h |  | 7 µM |
| COCC12CCC(OC)C34C5CC6(O)C(O)C5C(O)(C(O)C6OC)C(C(OC)C13)C4N(C)C2 (stereo not shown) | NCI-H460 | cell growth or viability |  | MTT |  |  | 13.7 µM |
| CC1=CC(C)=[N+]2C1=Cc1ccc(CCC(=O)NCC3C[NH][Pt]([Cl])([Cl])[NH]3)n1[B-]2(F)F (stereo not shown) | CP.5 single cells in 3D Matrigel | cytotoxicity |  | CellTiter-Glo | 1 days | pre-grown 1 day | 186 ± 47.2 µM |
| CCN1CC2(COC)CCC(O)C34C5CC6C(OC)CC(O)(C(CC23)C14)C5C6O (stereo not shown) | NCI-H460 | cell growth or viability |  | MTT |  |  | 12.2 µM |
| COc1ccnc(-c2cc(OC)ccn2)c1.[C-]#[O+].[C-]#[O+].[C-]#[O+].[Re+] | KB 3-1 | cell viability |  |  |  |  | 0.77 ± 0.17 µM |
| O=C(Cc1ccc2ccccc2c1)N[C@H](Cc1ccccc1)C(=O)N[C@H](Cc1ccccc1)C(=O)N[C@H](Cc1ccc(O)cc1)C(=O)N[C@H](Cc1ccc(O)cc1)C(=O)O | T98G | cell growth or viability |  | MTT |  |  | > 500 µg/mL |
| O=C1CC2(C1)C(=O)[O][Pt]1([Cl])([O]C(=O)C(F)(F)F)([NH][C@@H]3CCCC[C@H]3[NH]1)[O]C2=O | NCI-H460 | cell growth or viability |  | MTT |  |  | 7.66 µM |
| CNC(=O)c1cc(Oc2ccc(NC(=O)c3cc(-c4cccc(COC(=O)CCC(=O)OC5OC6OC7(C)CCC8C(C)CCC(C5C)C68OO7)c4)ccn3)cc2)ccn1 (stereo not shown) | L02 | cell growth or viability |  | MTT | 72 h |  | 64.5 µM |
| CC(C)c1cccc(C(C)C)c1-n1c[n+](-c2c(C(C)C)cccc2C(C)C)c2c1-c1cccc3cccc-2c13.[Cl][Pd-]([Cl])[CH2]C=Cc1ccccc1 | NTERA2 | cell growth or viability |  | MTT | 72 h |  | 2 µM |
| CCOC12C(O)C(OC)C3(O)CC(C1C3OC(=O)c1ccccc1)C13C(OC)CC(O)C4(COC)CN(CC)C1C2C(OC)C43 (stereo not shown) | HBE | cell growth or viability |  | MTT |  |  | 31.4 µM |
| C[C@H]1C(OCCCC[P+](c2ccccc2)(c2ccccc2)c2ccccc2)O[C@@H]2O[C@@]3(C)CCC4[C@H](C)CCC1[C@]42OO3 (stereo partly shown) | HUVEC | cell viability |  | MTT | 72 h |  | 0.495 ± 0.0387 µM |
| CCN1CC2(COC)CCC(OC)C34C5CC6(O)C(OC)C(O)C(O)(C5C6OC(=O)c5ccccc5)C(C(OC)C23)C14 (stereo not shown) | HBE | cell growth or viability |  | MTT |  |  | 25.7 µM |
| CC(C)[C@@H]1NC(=O)[C@H](C)OC(=O)[C@@H](C(C)C)NC(=O)[C@@H](C(C)C)OC(=O)[C@H](C(C)C)NC(=O)[C@H](C)OC(=O)[C@@H](C(C)C)NC(=O)[C@@H](C(C)C)OC(=O)[C@H](C(C)C)NC(=O)[C@H](C)OC(=O)[C@@H](C(C)C)NC(=O)[C@H](C)OC1=O | SHG-44 | cell growth or viability |  | SRB | 72 h |  | 1.4 µM |
| CCN1CCNC1=[S+][Ag-3]([O][N+](=O)[O-])([P+](c1ccccc1)(c1ccccc1)c1ccccc1)[P+](c1ccccc1)(c1ccccc1)c1ccccc1 | MG-63 |  |  | MTT | 24 h |  | 13.2 µM |
| CCN1CC2(COC)CCC(O)C34C5CC6C(OC)CC(O)(C5C6O)C(C(OC)C23)C14 (stereo not shown) | NCI-H460 | cell growth or viability |  | MTT |  |  | 12.7 µM |
| COc1ccc(/C=C/C(=O)CC(=O)/C=C/c2ccc(OC)c(OC)c2)cc1OC | human Astrocyte | cell growth or viability |  | MTS | 24 h |  | 28.3 µM |

Some of these lines once more:
| SMILES | cell line | read-out | mode | technique | time | setting | IC50 |
| --- | --- | --- | --- | --- | --- | --- | --- |
| C1CCN(C2CCNCC2)CC1.CCCC(CCC)C(=O)[O][Pt]([OH])([Cl])[Cl].CCCCN | BXPC-3 | cell growth or viability |  |  |  |  | 4.43 µM |
| COCC12CN(C)C3C4C(OC)C1C3(C(OC)CC2O)C1CC2(O)C(OC)C(O)C4(OC(C)=O)C1C2OC(=O)c1ccccc1 (stereo not shown) | NCI-H460 | cell growth or viability |  | MTT |  |  | 15.6 µM |
| Cc1cc(C)c(-n2ccn(-c3c(C)cc(C)cc3C)c2=[Se])c(C)c1.[Cl][Au] | human ovarian cancer cells | cell viability |  | MTT | 72 h |  | 1.8 ± 0.3 µM |
